{"data": "Assay results of several laboratories", "note": "Parts stem from different laboratories: compare values within a part only."}
{"data": "Sample 1", "target": "Histone acetyltransferase KAT6A, winged helix 2, GST fusion (KAT6A, Homo sapiens, UniProt Q92794, residues 85-181)", "technique": "protein binding microarray", "form": "double-stranded DNA, one strand shown", "matrix": "in vitro", "concentration": "not given", "setting": "8-mer, flanks averaged, mean of 2 arrays, mostly near background", "reference": "not given", "reading": "higher = stronger binding", "Construct (chain)": "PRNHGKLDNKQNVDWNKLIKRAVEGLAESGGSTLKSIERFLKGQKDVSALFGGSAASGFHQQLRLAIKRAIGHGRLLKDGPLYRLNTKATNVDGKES"}
{"Sequence": "TTAGCTAA", "E-score": 0.00547}
{"Sequence": "CTCAGCTA", "E-score": -0.0639}
{"Sequence": "CGTATTAA", "E-score": 0.0119}
{"Sequence": "CCCGTACC", "E-score": -0.0388}
{"Sequence": "ACGTACGA", "E-score": -0.351}
{"Sequence": "GGTTTGGA", "E-score": -0.0632}
{"Sequence": "CGTAAGAG", "E-score": -0.077}
{"Sequence": "ACGTTGAG", "E-score": -0.232}
{"Sequence": "CGCTACAC", "E-score": -0.0895}
{"Sequence": "CCCAATCG", "E-score": 0.0503}
{"Sequence": "AGTCCTCG", "E-score": -0.18}
{"Sequence": "CGGTAGCC", "E-score": 0.143}
{"Sequence": "TCCTGAAA", "E-score": 0.0912}
{"Sequence": "AGTCACCA", "E-score": -0.125}
{"Sequence": "AAGTGCCC", "E-score": -0.0207}
{"Sequence": "CCTTCCAG", "E-score": -0.0439}
{"Sequence": "ATCGCACC", "E-score": 0.0439}
{"Sequence": "GAGGACCC", "E-score": -0.114}
{"Sequence": "CGGAGTTC", "E-score": 0.112}
{"Sequence": "AAGACGCT", "E-score": -0.159}
{"Sequence": "AAAGCGGG", "E-score": 0.0809}
{"Sequence": "GCTCCGCA", "E-score": 0.139}
{"data": "Sample 2", "target": "Ras GTPase-activating protein-binding protein 1, RRM domain (G3BP1, Homo sapiens, UniProt Q13283)", "technique": "RNA Bind-n-Seq", "form": "RNA", "matrix": "in vitro", "concentration": "1 µM", "setting": "whole 134-nt RNA, ends assumed", "together with": "150 mM KCl", "reference": "input library", "reading": "higher = stronger binding", "sequence of UniProt Q13283 (whole entry, looked up)": "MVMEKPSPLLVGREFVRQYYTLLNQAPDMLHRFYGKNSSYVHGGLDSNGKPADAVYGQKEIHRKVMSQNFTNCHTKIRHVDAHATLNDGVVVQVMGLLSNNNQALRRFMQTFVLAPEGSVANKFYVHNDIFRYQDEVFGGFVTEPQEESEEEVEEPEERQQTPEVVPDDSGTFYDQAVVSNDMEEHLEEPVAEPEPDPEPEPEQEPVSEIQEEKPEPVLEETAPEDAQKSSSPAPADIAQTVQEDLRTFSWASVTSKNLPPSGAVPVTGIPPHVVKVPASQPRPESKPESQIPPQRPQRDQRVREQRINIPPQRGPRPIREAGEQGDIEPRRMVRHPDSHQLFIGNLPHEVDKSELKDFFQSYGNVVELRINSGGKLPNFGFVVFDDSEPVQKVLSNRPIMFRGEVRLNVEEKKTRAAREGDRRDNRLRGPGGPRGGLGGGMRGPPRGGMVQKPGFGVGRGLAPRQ"}
{"Sequence": "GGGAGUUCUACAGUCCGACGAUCAGUCCUGUGCUACACAUCGUAUGUACCGAAUCGGGCCCCCGGGCCCCCGGCCCCCGGGAAAGUAUUAUGUUACGCCGUUCGGAUCUGCACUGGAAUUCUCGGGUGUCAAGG", "log2 enrichment": -0.717}
{"Sequence": "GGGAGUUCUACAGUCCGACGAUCCACAGACAACACGCACCCACACAGACACAGAGGGAAGGGGUUGGGAUGGGGACAGGGUGCACAGCAGGGCGGGGUAGGACCCGAGCCCCUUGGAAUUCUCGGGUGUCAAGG", "log2 enrichment": -0.442}
{"Sequence": "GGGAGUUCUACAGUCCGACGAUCUGCGUGCUUGUGUCCUGGAGCUGGAAGAGCGGCUGAGCACGCAGGAGGGCUUGGUGCAAGAGCUUCAGAAAAAACAGGUGGAAUUGCAGGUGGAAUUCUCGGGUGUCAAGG", "log2 enrichment": -0.501}
{"Sequence": "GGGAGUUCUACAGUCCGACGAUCAAGUCCUGUGCUACACAUCGUAUGUACCGAAUCGGGGUGGGGAAAGGGGAAAGGGGAAAGUAUUAUGUUACGCCGUUCGGAUCUGCACUUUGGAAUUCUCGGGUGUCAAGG", "log2 enrichment": 1.28}
{"Sequence": "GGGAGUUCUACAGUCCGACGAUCCCUGUGCUACACAUCGUAUGUACCGAAUCGGGUUUUUUUGGGAAAAAAAGGGUUUUUGGGAAAGUAUUAUGUUACGCCGUUCGGAUCUGCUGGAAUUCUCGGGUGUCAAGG", "log2 enrichment": -0.411}
{"Sequence": "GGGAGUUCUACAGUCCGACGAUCUGGCCCUGGUGGCAUGCGGGGAGGAAGAGGUGGCCGCAUGGAUCGUGGUGGUCCCGGUGGAAUGUUCAGAGGUGGCCGUGGUGGAGACAGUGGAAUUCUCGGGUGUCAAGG", "log2 enrichment": 0.98}
{"Sequence": "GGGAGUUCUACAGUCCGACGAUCUCAAGUCCUGUGCUACACAUCGUAUGUACCGAAUCGGUUUGGUUUGGGUUUGGGGAAAGUAUUAUGUUACGCCGUUCGGAUCUGCACUUCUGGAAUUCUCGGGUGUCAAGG", "log2 enrichment": -0.237}
{"Sequence": "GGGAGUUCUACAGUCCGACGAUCCUCAAGUCCUGUGCUACACAUCGUAUGUACCGAAUCGGGAAGGGAAGGAAGGGAAAGUAUUAUGUUACGCCGUUCGGAUCUGCACUUCCAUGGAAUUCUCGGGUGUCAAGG", "log2 enrichment": -0.173}
{"Sequence": "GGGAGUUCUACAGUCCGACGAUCUAACUUUAGAGGAGGAUCUGAUGGAUUUGGCAGUGGACGUGGAUUUGGGGAUGGCUAUAAUGGGUAUGGAGGAGGACCUGGAGGUGGCAAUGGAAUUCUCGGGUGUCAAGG", "log2 enrichment": -0.738}
{"Sequence": "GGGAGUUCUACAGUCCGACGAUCUCAAGUCCUGUGCUACACAUCGUAUGUACCGAAUCGGGAAAAAGGGUGGGUGGGAAAGUAUUAUGUUACGCCGUUCGGAUCUGCACUUCCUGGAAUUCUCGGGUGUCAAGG", "log2 enrichment": 0.607}
{"data": "Sample 3", "target": "Sal-like protein 4, full length isoform A (SALL4, Homo sapiens, UniProt Q9UJQ4, residues 1-1053)", "technique": "universal PBM", "form": "double-stranded DNA, one strand shown", "matrix": "in vitro", "concentration": "600 nM", "setting": "8-mer, flanks averaged, mean of replicates", "reading": "higher = stronger binding", "sequence of UniProt Q9UJQ4 (whole entry, looked up)": "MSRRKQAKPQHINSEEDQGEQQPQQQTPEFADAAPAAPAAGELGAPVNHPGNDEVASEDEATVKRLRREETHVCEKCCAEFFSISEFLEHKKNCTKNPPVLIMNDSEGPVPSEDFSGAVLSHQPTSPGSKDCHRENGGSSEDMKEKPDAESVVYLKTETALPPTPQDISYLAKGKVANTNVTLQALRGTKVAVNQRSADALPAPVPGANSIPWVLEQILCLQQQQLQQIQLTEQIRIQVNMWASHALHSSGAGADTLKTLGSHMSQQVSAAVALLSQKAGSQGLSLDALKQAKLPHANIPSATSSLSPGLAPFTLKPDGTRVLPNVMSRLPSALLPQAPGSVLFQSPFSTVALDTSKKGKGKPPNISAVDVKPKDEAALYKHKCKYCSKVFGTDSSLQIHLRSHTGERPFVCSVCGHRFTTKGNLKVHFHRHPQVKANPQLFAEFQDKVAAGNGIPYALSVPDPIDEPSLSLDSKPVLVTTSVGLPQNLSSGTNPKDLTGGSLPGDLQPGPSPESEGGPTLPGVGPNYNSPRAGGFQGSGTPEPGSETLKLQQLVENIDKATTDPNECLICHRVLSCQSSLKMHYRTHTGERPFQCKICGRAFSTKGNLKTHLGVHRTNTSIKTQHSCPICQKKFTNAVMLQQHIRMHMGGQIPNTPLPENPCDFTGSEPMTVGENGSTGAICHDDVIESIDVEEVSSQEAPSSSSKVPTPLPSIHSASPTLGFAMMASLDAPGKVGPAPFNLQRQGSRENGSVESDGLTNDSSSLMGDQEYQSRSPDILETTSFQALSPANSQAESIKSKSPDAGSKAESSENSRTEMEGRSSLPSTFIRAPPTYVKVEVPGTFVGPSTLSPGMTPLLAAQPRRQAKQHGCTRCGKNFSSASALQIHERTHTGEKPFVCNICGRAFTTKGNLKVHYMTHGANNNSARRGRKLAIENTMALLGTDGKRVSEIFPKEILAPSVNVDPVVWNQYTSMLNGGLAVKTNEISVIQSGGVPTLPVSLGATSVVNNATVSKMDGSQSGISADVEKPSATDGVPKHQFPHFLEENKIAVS"}
{"Sequence": "CCATCGAG", "E-score": -0.0828}
{"Sequence": "GCAGAGGC", "E-score": -0.168}
{"Sequence": "TTAAATAA", "E-score": 0.341}
{"Sequence": "CGCTTGCC", "E-score": -0.155}
{"Sequence": "AAGTCCAT", "E-score": -0.0648}
{"Sequence": "ACCTACCG", "E-score": -0.136}
{"Sequence": "ATCCTTCC", "E-score": 0.00615}
{"Sequence": "ATTAGTTC", "E-score": 0.165}
{"Sequence": "CACTTAGC", "E-score": -0.176}
{"Sequence": "CACCAAGG", "E-score": -0.158}
{"Sequence": "AGGGATAT", "E-score": 0.202}
{"Sequence": "AATGTCAG", "E-score": 0.0759}
{"Sequence": "GACCATGA", "E-score": -0.0193}
{"Sequence": "TAGCGTCA", "E-score": 0.0261}
{"Sequence": "CGCGAGCA", "E-score": -0.235}
{"Sequence": "ACTTGCAG", "E-score": 0.00445}
{"Sequence": "ACTGGTTA", "E-score": 0.159}
{"Sequence": "CTGCATCA", "E-score": 0.0614}
{"Sequence": "AAGGGATA", "E-score": 0.192}
{"Sequence": "ATATCTTG", "E-score": 0.316}
{"Sequence": "ACGCTGGA", "E-score": -0.184}
{"Sequence": "CGGGCTAC", "E-score": -0.315}
{"Sequence": "CTACGCTC", "E-score": -0.0906}
{"Sequence": "GGGGCCTA", "E-score": -0.379}
{"Sequence": "ATAGTTAA", "E-score": 0.326}
{"data": "Sample 4", "target": "Interferon regulatory factor 7, full length, phosphomimetic (IRF7, Homo sapiens, UniProt Q92985, residues 1-503, S471D/S472D/S475D/S476D/S477D/S483D/S484D/S487D)", "technique": "protein-binding microarray", "form": "double-stranded DNA, one strand shown", "matrix": "in vitro", "concentration": "2200 nM top", "setting": "60-bp whole probe", "together with": "salmon DNA 0.4 mg/ml", "reference": "random background probes", "reading": "higher = stronger binding", "shared flanks, not repeated": "GCCTAGCAC … GTCTTGATTCGCTTGACGCTGCTG", "Construct (chain)": "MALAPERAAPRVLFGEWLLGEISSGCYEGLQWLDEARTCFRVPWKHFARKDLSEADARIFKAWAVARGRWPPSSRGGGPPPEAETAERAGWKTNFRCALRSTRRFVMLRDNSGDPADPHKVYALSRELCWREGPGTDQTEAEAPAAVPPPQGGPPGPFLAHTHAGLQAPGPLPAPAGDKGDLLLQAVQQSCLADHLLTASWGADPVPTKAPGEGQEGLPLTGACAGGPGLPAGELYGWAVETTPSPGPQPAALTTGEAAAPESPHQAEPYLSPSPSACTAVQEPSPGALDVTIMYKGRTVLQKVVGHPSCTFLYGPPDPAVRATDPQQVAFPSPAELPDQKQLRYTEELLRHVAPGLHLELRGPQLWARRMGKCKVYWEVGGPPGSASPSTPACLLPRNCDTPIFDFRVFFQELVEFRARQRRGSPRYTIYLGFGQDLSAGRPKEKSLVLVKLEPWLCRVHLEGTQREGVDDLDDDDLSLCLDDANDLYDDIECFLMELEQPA"}
{"Sequence": "AATCTTTTCACTTTCTTTAAGTGCTAG", "fitted relative affinity [z-score]": 3.44}
{"Sequence": "GTCGATTCCAGTTTCGAGACGTGCTAG", "fitted relative affinity [z-score]": 4.87}
{"Sequence": "GACGATTTCTGGTATCGAGACGTGCTA", "fitted relative affinity [z-score]": 1.36}
{"Sequence": "ATGTTTGTCACTCTCAGAATGTGCTAG", "fitted relative affinity [z-score]": 1.64}
{"Sequence": "TTAGGACTGGGACTGAGTTAGTGCTAG", "fitted relative affinity [z-score]": -0.691}
{"Sequence": "TTAGAACTGAGTTACGATTAGTGCTAG", "fitted relative affinity [z-score]": -0.447}
{"Sequence": "TTAGGGCTCCTACTGCTTTAGTGCTAG", "fitted relative affinity [z-score]": 0.0309}
{"Sequence": "TCATGATTACATATATGACTGTGCTAG", "fitted relative affinity [z-score]": 0.596}
{"Sequence": "TTAGGTAACGGTCTCGGTTAGTGCTAG", "fitted relative affinity [z-score]": 0.114}
{"Sequence": "GACGGTTTCGGGACCGGGGACGTGCTA", "fitted relative affinity [z-score]": 3.3}
{"Sequence": "TTAGGTAACGGACTGGGTTAGTGCTAG", "fitted relative affinity [z-score]": -0.325}
{"Sequence": "GACGGACAGCTTCTCCTGACGTGCTAG", "fitted relative affinity [z-score]": 0.158}
{"Sequence": "TTAGGACTGGGGACTGGTTTAGTGCTA", "fitted relative affinity [z-score]": -0.729}
{"Sequence": "GACGGTATCTGGACTGGGGACGTGCTA", "fitted relative affinity [z-score]": -0.333}
{"Sequence": "GACGGTATCGGGACTGGGGTCGTGCTA", "fitted relative affinity [z-score]": -0.393}
{"Sequence": "TCAAAAAATGATTGGTTACTGTGCTAG", "fitted relative affinity [z-score]": -0.888}
{"Sequence": "GTTCAAAGTCCTACGGCTTCGTGCTAG", "fitted relative affinity [z-score]": 0.157}
{"Sequence": "TAAGGTTTCCTTTTCCTTTAGTGCTAG", "fitted relative affinity [z-score]": 7.01}
{"Sequence": "TTAGGACTGGACTATCGGTTGGTGCTA", "fitted relative affinity [z-score]": -0.165}
{"Sequence": "TCAATCATTGCTTTCTCACTGTGCTAG", "fitted relative affinity [z-score]": 1.45}
{"Sequence": "TTAGATTTCGGTATCGATTAGTGCTAG", "fitted relative affinity [z-score]": 3.49}
{"Sequence": "TCAGGGCTACCTCTCTTACTGTGCTAG", "fitted relative affinity [z-score]": -0.378}
{"Sequence": "TTAGAACTGGGGGTTCGATTAGTGCTA", "fitted relative affinity [z-score]": 0.651}
{"Sequence": "TCAACTGTCTGTTTCCTACTGTGCTAG", "fitted relative affinity [z-score]": 2}
